Published values from different studies.
Numbered parts are unrelated; each lists some results of a single study. Changes are numbered by the printed parent chain.

Block 1
Target: Histone acetyltransferase KAT6A, winged helix 2, GST fusion (KAT6A, Homo sapiens, UniProt Q92794, residues 85-181)
Technique: protein binding microarray
Form: double-stranded DNA, one strand shown
Medium: in vitro
Tested at: not given
Notes: 8-mer, flanks averaged, mean of 2 arrays, mostly near background
Reference: not given
Direction: higher = stronger binding
Residues (chain): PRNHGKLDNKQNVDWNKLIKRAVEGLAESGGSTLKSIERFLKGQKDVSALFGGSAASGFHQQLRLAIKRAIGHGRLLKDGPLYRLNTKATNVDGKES
The E-score of `CTGTTCGC` is reported as 0.161.
With `CGCTCACC` the E-score was -0.0759.
The E-score of `TATCCCCA` is reported as -0.123.
The E-score of `ATAGACAG` is reported as 0.0162.
With `GCACCTTA` the E-score was -0.0642.
For `ATGCGTTC`, the E-score was 0.117.
For `CGAACGCA`, the E-score was 0.228.
`GATCAGCA` has an E-score of 0.108.

Block 2
Target: CCNE2, cyclin fold, Cln2 fusion (human)
Technique: yeast growth competition, sequencing
Medium: yeast
Notes: strong parent motif
Reference: not given
Direction: higher = stronger binding
Parent: viral docking peptide; KGVKRKLFAEDSS; partner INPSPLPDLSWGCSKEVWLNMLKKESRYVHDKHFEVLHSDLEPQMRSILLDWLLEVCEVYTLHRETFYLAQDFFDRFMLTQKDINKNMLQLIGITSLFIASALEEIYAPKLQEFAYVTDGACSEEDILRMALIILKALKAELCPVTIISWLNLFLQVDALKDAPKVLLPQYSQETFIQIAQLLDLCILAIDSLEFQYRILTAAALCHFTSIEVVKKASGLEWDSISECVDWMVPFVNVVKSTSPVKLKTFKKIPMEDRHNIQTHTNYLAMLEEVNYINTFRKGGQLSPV
`R5D`: “normalised enrichment score” 0.105.
Under “normalised enrichment score”, `G2N` is recorded as 6.86.
`K6G` — result for “normalised enrichment score”: 1.02.
`G2W`: “normalised enrichment score” 4.39.
Under “normalised enrichment score”, `L7P` is recorded as 0.239.
For `D11E`, “normalised enrichment score” read 7.06.
`D11V` — result for “normalised enrichment score”: 6.24.

Block 3
Target: UDP-N-acetylglucosamine--peptide N-acetylglucosaminyltransferase 110 kDa subunit (OGT, Homo sapiens, UniProt O15294)
UniProt O15294, sequence (whole entry, looked up): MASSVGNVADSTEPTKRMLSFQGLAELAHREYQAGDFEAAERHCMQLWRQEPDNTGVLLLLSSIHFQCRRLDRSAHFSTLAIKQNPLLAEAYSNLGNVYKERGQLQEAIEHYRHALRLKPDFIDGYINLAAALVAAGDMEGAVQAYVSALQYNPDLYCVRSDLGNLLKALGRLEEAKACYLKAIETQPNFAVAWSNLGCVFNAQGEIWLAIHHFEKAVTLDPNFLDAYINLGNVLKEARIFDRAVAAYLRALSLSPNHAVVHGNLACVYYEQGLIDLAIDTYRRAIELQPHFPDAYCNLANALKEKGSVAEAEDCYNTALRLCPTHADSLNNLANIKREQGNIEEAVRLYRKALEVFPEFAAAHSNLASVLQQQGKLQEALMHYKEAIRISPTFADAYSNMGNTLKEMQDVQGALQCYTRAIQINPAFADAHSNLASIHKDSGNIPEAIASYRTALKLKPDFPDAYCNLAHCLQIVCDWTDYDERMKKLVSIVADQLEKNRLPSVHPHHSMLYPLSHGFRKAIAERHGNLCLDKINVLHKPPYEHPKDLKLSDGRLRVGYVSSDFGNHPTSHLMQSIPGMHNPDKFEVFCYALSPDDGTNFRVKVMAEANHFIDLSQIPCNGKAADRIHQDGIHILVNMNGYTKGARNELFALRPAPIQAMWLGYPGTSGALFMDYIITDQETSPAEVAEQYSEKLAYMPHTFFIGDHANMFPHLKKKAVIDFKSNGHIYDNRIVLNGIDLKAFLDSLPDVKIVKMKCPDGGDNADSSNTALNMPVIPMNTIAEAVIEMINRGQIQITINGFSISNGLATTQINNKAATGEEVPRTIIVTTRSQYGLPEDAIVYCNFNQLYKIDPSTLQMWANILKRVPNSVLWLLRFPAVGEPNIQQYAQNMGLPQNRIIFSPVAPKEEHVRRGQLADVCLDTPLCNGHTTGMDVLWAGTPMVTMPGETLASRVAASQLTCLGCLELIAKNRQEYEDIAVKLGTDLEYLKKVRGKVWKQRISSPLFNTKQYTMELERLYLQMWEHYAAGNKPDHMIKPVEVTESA
Read-out: binding
Technique: phage display NGS
Form: peptide
Reference: input library
`HFASPYYTQWHGHWL` — result for “minimum log2 enrichment ratio”: 2.12.
For `HGPYHVPRHVPYKYG`, “minimum log2 enrichment ratio” read 3.32.
`HQHQQPQQHVKWHKF` — result for “minimum log2 enrichment ratio”: 1.9.
`HSPHGTGWMQGHNAH` — result for “minimum log2 enrichment ratio”: 3.28.
`STDWSPFTPMYQIKA` — result for “minimum log2 enrichment ratio”: 4.72.
Under “minimum log2 enrichment ratio”, `TEVPPQYIIEYWKLD` is recorded as 2.43.
`HERHHYVRYQNAGQD`: “minimum log2 enrichment ratio” 1.29.
For `TFEHWYWTDTTYKHH`, “minimum log2 enrichment ratio” read 2.4.
`WPHNWAYHGFDWHA` — result for “minimum log2 enrichment ratio”: 5.8.
`HKHLMDRHDFMYMHA`: “minimum log2 enrichment ratio” 3.02.
`QYLPQYQILPVIYSS`: “minimum log2 enrichment ratio” 1.21.
`HQMPFAFHHDHPFVH` — result for “minimum log2 enrichment ratio”: 2.3.
`HPSHHHGHQNEYYV`: “minimum log2 enrichment ratio” 3.19.
For `FQPSYQIEYSRVING`, “minimum log2 enrichment ratio” read 3.17.
For `QQQYRDYNPKYIIHY`, “minimum log2 enrichment ratio” read 3.19.
`WMPVNYNGKHHSHTV`: “minimum log2 enrichment ratio” 5.89.
`TDSYMPVYEIKSKAV`: “minimum log2 enrichment ratio” 2.5.
For `HLEQHMHHMIHKYAN`, “minimum log2 enrichment ratio” read 1.68.
For `QNYRPFYMINISSGS`, “minimum log2 enrichment ratio” read 1.69.
`GMEPYHPVYQIVTNN` — result for “minimum log2 enrichment ratio”: 1.74.
`HIGRHTGPHYYNIVH` — result for “minimum log2 enrichment ratio”: 1.93.

Block 4
Target: vanadate, free oxyanion
Technique: microfluidic competitive inhibition
Medium: in vitro, cell-free expressed
Tested at: not given
Notes: derived from inhibition constants, unchanged parent 676 nM
Direction: lower = stronger binding
Parent: PafA, mature enzyme, eGFP fusion (Elizabethkingia meningoseptica, UniProt Q9KJX5); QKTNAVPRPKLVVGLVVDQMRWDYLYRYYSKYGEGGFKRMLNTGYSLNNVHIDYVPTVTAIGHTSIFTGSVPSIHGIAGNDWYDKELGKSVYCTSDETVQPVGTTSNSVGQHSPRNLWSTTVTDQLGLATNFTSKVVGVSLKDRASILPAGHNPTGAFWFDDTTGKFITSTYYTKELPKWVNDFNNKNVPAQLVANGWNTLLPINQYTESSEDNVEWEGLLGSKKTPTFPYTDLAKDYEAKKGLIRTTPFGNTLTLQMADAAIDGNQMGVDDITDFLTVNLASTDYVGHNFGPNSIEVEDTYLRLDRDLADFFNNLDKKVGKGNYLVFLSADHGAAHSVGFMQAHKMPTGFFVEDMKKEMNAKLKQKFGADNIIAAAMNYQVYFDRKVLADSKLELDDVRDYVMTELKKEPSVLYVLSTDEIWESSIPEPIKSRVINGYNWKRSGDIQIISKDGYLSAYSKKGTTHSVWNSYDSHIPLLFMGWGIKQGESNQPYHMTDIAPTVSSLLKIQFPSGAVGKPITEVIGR
Under “oxyanion analog dissociation constant”, `D162V` is recorded as 692 nM.
`G88V`: “oxyanion analog dissociation constant” 708 nM.
`P149G`: “oxyanion analog dissociation constant” 517 nM.
`N440V` — result for “oxyanion analog dissociation constant”: 775 nM.
`D213G` — result for “oxyanion analog dissociation constant”: 561 nM.
For `N266G`, “oxyanion analog dissociation constant” read 1.03 µM.

A few entries again (block 1):
The E-score of `TATCCCCA` is reported as -0.123.
With `GCACCTTA` the E-score was -0.0642.
With `CGCTCACC` the E-score was -0.0759.
For `ATGCGTTC`, the E-score was 0.117.
For `CGAACGCA`, the E-score was 0.228.
`GATCAGCA` has an E-score of 0.108.
